Measurements from different studies.
Each numbered part is a random draw from the data of one study; scales do not carry over between parts. Positions count from the first letter of the parent shown.

Study 1
Target: Interferon regulatory factor 5, full length, phosphomimetic (IRF5, Homo sapiens, UniProt Q13568-2, residues 1-514, K96S/S451D/S453D/S456D/S462D)
Method: protein-binding microarray
Form: double-stranded DNA, one strand shown
Matrix: in vitro
Concentration: 250 nM
Setting: 60-bp whole probe
Added: salmon DNA 0.4 mg/ml
Relative to: random background probes
Reading: higher = stronger binding
Quantity: log fluorescence
Constant ends, left off below: GCCTAGCAC … GTCTTGATTCGCTTGACGCTGCTG
TCAAATTTCCACTTTGAACTGTGCTAG: 0.809 z-score
TACGGTATCCTTATCCTGACGTGCTAG: 0.243 z-score
TTAGGTATTGGGTATCGGTTAGTGCTA: 4.03 z-score
TTAGGTATCGGGTATCGGTTTGTGCTA: 6.38 z-score
TTAGCTTTCCTTCTCCTTTAGTGCTAG: 1.43 z-score
TCATTTATTTTTTTTATACTGTGCTAG: 1.28 z-score
TTAGGTTTGGGGACTGGGTTAGTGCTA: -0.193 z-score
TTAGGGCTGGGGTATCGGTTAGTGCTA: 1.99 z-score
GACGGTCTCGACTTTCGGGACGTGCTA: 4.77 z-score
TTAGGTTTCTACTTTCGGTTAGTGCTA: 10.5 z-score
CACGAACTGGGGACTGGAGACGTGCTA: -0.698 z-score
GAACCTTGGCCTCTAGGTTTGTGCTAG: -0.445 z-score
GACGGTATCCTCCTGCTGACGTGCTAG: -0.256 z-score
TTAGGTACCGGTTTCGGTTAGTGCTAG: 8.77 z-score
TTACGTTCCCTTTTCCTTTAGTGCTAG: 1.66 z-score
TTAGGTTTCCTACTGCGTTAGTGCTAG: 0.413 z-score
GACGATTTCGACTATCGGGACGTGCTA: 3.97 z-score
TCAGGTCTCGGTATCGGTTAGTGCTAG: 5.11 z-score
GACGGTTTCCTACTGCAGACGTGCTAG: 0.452 z-score
TTAGAACTGATTTTCGATTAGTGCTAG: 6.37 z-score
GACGATTTCGGGACTGGGGACGTGCTA: 1.87 z-score

Study 2
Target: RNA binding protein fox-1 homolog 2, RRM domain, GST-SBP tag (RBFOX2, Homo sapiens, UniProt O43251-10, residues 100-194)
Method: RNA Bind-n-Seq
Form: RNA
Matrix: in vitro
Concentration: 365 nM
Setting: natural RNA segment, single round, ends assumed
Relative to: no-protein control
Reading: higher = stronger binding
Quantity: RBNS enrichment (R)
Constant ends, left off below: GGGAGUUCUACAGUCCGACGAUC … UGGAAUUCUCGGGUGCCAA
Target sequence (chain): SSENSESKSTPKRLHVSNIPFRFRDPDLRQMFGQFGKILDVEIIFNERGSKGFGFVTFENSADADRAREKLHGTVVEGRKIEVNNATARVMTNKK
GUGGGAGAGAACCCGGGGCCUGCUUUUCAAGGAUGAGGAGGAGGCAGGAACAGAAGGCAGCUGCUGCUUUCUGUGGAAACCUGGCCCCUCUGGAAUUGGCCUCUGUGGGC: 0.557
AAAGUUUGUCAUGGUGAAUAACUUGAAAUUUUUAUUAGUUAUAAGAAUUUUAGUCUGUUUUAGAGGUCAGUAAAUAAAAUACAAGCAUCCUGGUUUUGUUGAAGUUUUGG: 1.26
AAUUGUACUUUUUCUUCCCAUGUGAGCAUUGUGGGAAGGAAUGGACACAGAGCAGCGUAGACAUUUGUGAGCUUCGGUGCUGUUCAGUGCCUGCUUCUUCAUCACCUUAA: 0.979
AAUGUUCACUUUCUGUUCUCCAGUGUCACUGUUCUGUUUCCACGGGAUGGAAAGCGCAUGGGCCUGUGUCCAUUGUAGAUUUCCUUCUAGAUUUCUGUGUACACACACUU: 0.337
GAACCUUCAUGUCUUUUCUAGUGGGCAACCAGGCUUCCAAAAUAGCACUGACCUGGGAGGCCCCCAAGUAAGGCCAAGAAGUCUCUGCUACUCUAAUCUUUUACGUAUUA: 0.453
UUGUAAAAAUUUAAAUAAAUGAAUGUCUAUACUUUUUAUAAAGAAAAGUGAAAAUACCAUGACACUGAAAAGAUGAUGCUAUCAGAUGCUGUUUAGAAAGCAUUUAUCUU: 1.61
GAAGAGGACGAAGAAGAUUACGACUCCUACGCCUUCUGCCCCCCAGACCAUAGCCCCUUUUAGUUGGUUUUAGUUGCUCUGGGGGGAGGAGAGAAGGUAGAGCUGUUCUU: 0.411
UAGAUCCUGUUAACCGUGUCCUCUAAUUGUCUUUAUUUUAAUGCCAAAAGGAAGUGAUUAUGCAGCUGUGUGUAGAGUUUCAGAGCAAGUUCCUCAGCAGUGUAGAUGAA: 0.495
AAAGCCUGCACUGCACCAAAGCUACGGGUCCCUGUGUUUCCUCUAUUCAGUGAUGUCAUCAACCUCACUGUCCCAGCCCAUGUGUGACUAAAGUGCCCGGUUUUAGCCAC: 1.57
CUCACUGGGACUGGAGACCUCGUUCCUUCACCCCGCGUGUCGCCAGCCUCUGGGUCCAGCCAGAGCCCCUGGCUUCUCCGCCACCCACACCCUUCCCACCCUGCUGUGGG: 0.468
UGUGCAUGGAGUGAGGUGUGUGUGUGUGGAUGGAUGUGCACGUGUGCAUGCUUUUUUUCUUUUUGCCGUGAGGACAGUUGAAUUUGGGGCAUUUUUCUACAAGAAGCAGU: 14.4
GAAACCCAUGAUCACCCCUUUGAGGUAGAUUGACCGGCUUUAGACGCCCACCCCCCACCCACCGCAAGCUUUGAGUGGGACACCAUUCUGAAUUUUUUUUCUGAAUUUUU: 0.832

Study 3
Target: ABI1, truncated, D143A, DHFR fusion (Arabidopsis thaliana)
Method: DHFR PCA, deep sequencing
Matrix: yeast
Setting: methotrexate growth selection, single substitutions
Added: (+)-ABA 0.0091 µM
Relative to: wild-type fitted maximum
Reading: higher = stronger binding
Quantity: relative binding score
Parent: PYL1, truncated, DHFR fusion (Arabidopsis thaliana); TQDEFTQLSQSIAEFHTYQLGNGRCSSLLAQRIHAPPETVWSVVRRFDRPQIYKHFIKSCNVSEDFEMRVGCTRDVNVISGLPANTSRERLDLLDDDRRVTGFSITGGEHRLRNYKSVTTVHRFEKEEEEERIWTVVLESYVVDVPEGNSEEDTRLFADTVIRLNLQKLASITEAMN; partner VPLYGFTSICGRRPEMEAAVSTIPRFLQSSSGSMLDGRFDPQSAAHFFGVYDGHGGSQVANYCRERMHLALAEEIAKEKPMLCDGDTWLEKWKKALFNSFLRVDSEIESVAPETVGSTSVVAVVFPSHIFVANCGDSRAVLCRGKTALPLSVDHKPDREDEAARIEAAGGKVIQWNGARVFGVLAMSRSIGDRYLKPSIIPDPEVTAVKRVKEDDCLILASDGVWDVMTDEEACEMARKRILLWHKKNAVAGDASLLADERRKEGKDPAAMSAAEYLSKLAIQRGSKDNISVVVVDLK
G21S: 31.8%
R32A: 17.4%
R74A: -2.27%
E38C: -6.43%
I105S: -2.11%
C60M: -0.492%
D75L: 33.1%
S150M: 8.03%
I105W: -1.04%
I12P: -6.65%
E152S: 15.6%
L93A: 3.37%
D95K: -3.51%
G71D: -4.55%
Q51T: 5%
E131I: 24.3%
G71Y: -3.41%
G23K: 9.56%
F103V: -1.68%
D153Y: 1.75%
D144N: 6.91%
L138Q: -3.2%
E147W: -0.316%
L156G: 0.985%
Y53V: -3.15%

Study 4
Target: Histone acetyltransferase KAT6A, winged helix 1, GST fusion (KAT6A, Homo sapiens, UniProt Q92794, residues 1-85)
Method: protein binding microarray
Form: double-stranded DNA, one strand shown
Matrix: in vitro
Concentration: not given
Setting: 8-mer, flanks averaged, mean of 2 arrays, mostly near background
Relative to: not given
Reading: higher = stronger binding
Quantity: E-score
Target sequence (chain): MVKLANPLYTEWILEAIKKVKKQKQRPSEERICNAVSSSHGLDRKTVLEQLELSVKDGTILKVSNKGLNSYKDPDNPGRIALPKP
CTAGCCAC: -0.144
CTCCGGTC: 0.13
GCGTGGAA: 0.213
ACATTCAC: -0.148
GGAACGAA: -0.0318
CCCGTTAG: 0.347
AGCGCCCG: 0.385
AAGGATCC: -0.0329
TGAGCGAA: 0.0444
AGGCAGGG: -0.255
CATGCGAA: 0.0959
CCTAATGC: -0.049
ACTGAACT: 0.0583
GGGGAACC: 0.00328
GCTGGGGA: -0.171
CGGCCTCA: 0.228
CAAATCTA: -0.212

Study 5
Target: Sal-like protein 4, full length isoform B (SALL4, Homo sapiens, UniProt Q9UJQ4-2, residues 1-616)
Method: universal PBM
Form: double-stranded DNA, one strand shown
Matrix: in vitro
Concentration: not given
Setting: 8-mer, flanks averaged, mean of replicates
Reading: higher = stronger binding
Quantity: E-score
Residues (chain): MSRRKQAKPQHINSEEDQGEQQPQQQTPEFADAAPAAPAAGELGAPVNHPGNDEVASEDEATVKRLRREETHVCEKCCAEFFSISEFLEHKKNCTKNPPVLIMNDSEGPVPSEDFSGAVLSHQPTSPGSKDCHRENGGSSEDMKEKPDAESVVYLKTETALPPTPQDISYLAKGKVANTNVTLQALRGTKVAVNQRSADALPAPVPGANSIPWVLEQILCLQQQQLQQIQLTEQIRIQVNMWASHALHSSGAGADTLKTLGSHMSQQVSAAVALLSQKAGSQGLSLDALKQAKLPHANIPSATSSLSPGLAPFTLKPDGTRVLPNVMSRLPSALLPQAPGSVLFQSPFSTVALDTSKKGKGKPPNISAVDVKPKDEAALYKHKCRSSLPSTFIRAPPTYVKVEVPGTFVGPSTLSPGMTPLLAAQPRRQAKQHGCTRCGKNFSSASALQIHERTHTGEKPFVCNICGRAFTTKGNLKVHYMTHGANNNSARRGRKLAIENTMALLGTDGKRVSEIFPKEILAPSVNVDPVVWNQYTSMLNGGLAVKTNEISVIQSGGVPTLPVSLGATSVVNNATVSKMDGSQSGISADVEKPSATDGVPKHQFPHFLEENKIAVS
AGTCAATC: 0.023
CGCCACAA: -0.0378
AAGTTTAT: 0.305
AAGATGCA: 0.136
GAGGGGAC: -0.335
GAGCTCAC: -0.301
GCGCCCAA: -0.18
GCTAAGAC: -0.0268
GCTGTTAA: 0.116
AGGTTCCG: -0.117
ACGTATGC: 0.0895
CATGGCGG: -0.217
CTCGGAAC: -0.182
TACTACAA: 0.326
ACACGCCT: 0.101
AGTTTTTA: 0.312
AGCCGAAG: -0.182
GGTCGAAA: -0.0292
CTGGAATA: 0.138
CCCGACAC: -0.286
ACCTTTTC: 0.0829
ACTAGATC: 0.0315
CCAAGAAA: 0.0968
ATGGAGCA: -0.034
AGGTCGTA: 0.101

A few entries again (study 4):
CTCCGGTC: 0.13
GCGTGGAA: 0.213
ACATTCAC: -0.148
GGAACGAA: -0.0318
CCCGTTAG: 0.347
AGCGCCCG: 0.385
AAGGATCC: -0.0329
TGAGCGAA: 0.0444
AGGCAGGG: -0.255
CATGCGAA: 0.0959
CCTAATGC: -0.049
ACTGAACT: 0.0583
GGGGAACC: 0.00328
GCTGGGGA: -0.171
CGGCCTCA: 0.228
CAAATCTA: -0.212
